Measurements from different studies.
Protocols differ between the studies behind these lines. ± gives the spread as reported.

SMILES	target or system	test	system	conditions	endpoint	result
CC(C)C[C@H](NC(=O)[C@H](C)NC(=O)[C@H](Cc1cn(CCc2ccc(O)c(C=O)c2)nn1)NC(=O)[C@H](Cc1ccccc1)NC(=O)CCNC(=S)Nc1ccc2c(c1)C(=O)OC21c2ccc(O)cc2Oc2cc(O)ccc21)C(=O)N[C@@H](CC(=O)O)C(=O)N[C@@H](Cc1c[nH]c2ccccc12)C(=O)N[C@@H](CO)C(=O)N[C@@H](Cc1c[nH]c2ccccc12)C(=O)N[C@@H](CC(C)C)C(=O)N[C@@H](CCC(N)=O)C(=O)N[C@H](C(=O)N[C@@H](CCC(=O)O)C(N)=O)[C@@H](C)O		dynamic light scattering	PBS/DMSO	125 nM	hydrodynamic diameter	316 ± 18.4 nm
CSCC[C@@H]1NC(=O)[C@H](C(C)C)NC(=O)[C@H](CCCNC(=N)N)NC(=O)CNC(=O)[C@@H]2CCCN2C(=O)[C@@H](NC(=O)CNC(=O)[C@H](CO)NC(=O)CNC(=O)[C@H](CO)NC(=S)Nc2ccc(C[C@H]3CN(CC(=O)O)CCN(CC(=O)O)CCN3CC(=O)O)cc2)CSSC[C@@H](C(N)=O)NC(=O)[C@@H]2CCCN2C(=O)CNC(=O)[C@H](CCC(=O)O)NC(=O)[C@H](CC(=O)O)NC(=O)[C@H](CC(=O)O)NC(=O)CNC(=O)[C@H](CC(C)C)NC(=O)[C@H](Cc2c[nH]cn2)NC(=O)[C@H](CC(C)C)NC(=O)CNC(=O)[C@H](Cc2c[nH]cn2)NC1=O [copper-64 labelled]		dynamic PET	CD rat, myocardial infarction, infarct myocardium fibrosis	intravenous, 18.5 MBq	clearance half-life	25.6 ± 8 min
O=C1NC2(CC2)COc2ncc(F)cc2[C@H]2COCCN2c2ccn3ncc1c3n2			Sprague-Dawley rat, female, ovaries	oral, 20 mg/kg/day, 4 weeks dosing, end of recovery	organ-to-body weight ratio	0.036 ± 0.004%
CC[C@H](C)[C@H](NC(=O)CNC(=O)[C@H](CC(C)C)NC(=O)[C@H](Cc1ccccc1)NC(=O)CN)C(=O)N[C@@H](CC(C)C)C(=O)N[C@@H](Cc1ccccc1)C(=O)N[C@@H](Cc1c[nH]cn1)C(=O)NCC(=O)N[C@H](C(=O)N[C@@H](Cc1c[nH]cn1)C(=O)N[C@@H](Cc1c[nH]cn1)C(=O)NCC(=O)N[C@@H](CCCNC(=N)N)C(=O)N[C@@H](CCCCN)C(=O)N[C@@H](CCCCN)C(=O)N[C@@H](C)C(=O)N[C@@H](CC(C)C)C(=O)N[C@@H](Cc1c[nH]cn1)C(=O)N[C@@H](CCSC)C(=O)N[C@@H](CC(N)=O)C(=O)N[C@@H](CO)C(=O)N[C@@H](CCC(=O)O)C(=O)N[C@@H](CCCNC(=N)N)C(=O)N[C@@H](CCCNC(=N)N)C(=O)N[C@@H](CO)C(=O)O)C(C)C			zebrafish embryos 4 hpf, E3 medium	1 h	acute toxic concentration	25 µM
CC(=O)NCCCC[C@@H]1NC(=O)[C@H](Cc2c[nH]c3c(C)cccc23)NC(=O)[C@H]([C@@H](C)O)NC(=O)[C@H](CC(N)=O)NC(=O)[C@@H](NC(C)=O)C(C)(C)SSC(C)(C)[C@@H](C(=O)N[C@@H](Cc2ccc(OCCN)cc2)C(=O)N[C@@H](Cc2ccc3ccccc3c2)C(=O)NC2(C(=O)N[C@@H](CCC(=O)O)C(=O)N[C@@H](CC(N)=O)C(=O)N[C@@H](Cc3cccnc3)C(=O)N(C)CC(N)=O)CCOCC2)NC1=O		equilibrium dialysis	albumin plus glycoprotein	0.1 µM, albumin 4%, glycoprotein 0.07%	protein binding	25.8 ± 3.2%
CN[C@@H](C)C(=O)N[C@H](C(=O)N1C[C@@H](NC(=O)CCCCOCc2cn(CCNC(=O)CN(Cc3cccs3)C(=O)[C@H](NS(=O)(=O)c3cc4ccc(O)nc4cc3Cl)c3ccccc3OC)nn2)C[C@H]1C(=O)N[C@@H]1CCCc2ccccc21)C1CCCCC1		fast-gradient HPLC		pH 7.4	logD	2.6
O=C(CN1C(=O)C2(CCN(C(=O)c3ccc4[nH]ncc4n3)CC2)c2c(Br)cccc21)NCC(F)(F)F			male C57BL/6 mouse, plasma	intravenous, 2 mg/kg	Vd	4 L/kg
CC(C)[C@@H]1NC(=O)CNC(=O)[C@H](CC(N)=O)NC(=O)[C@H](CCCNC(=N)N)NC(=O)[C@H](Cc2ccc(O)cc2)NC(=O)[C@H](C(C)C)NC(=O)[C@@H](NC(=O)[C@@H](NC(=O)[C@H](CC(N)=O)NC(=O)[C@H](Cc2c[nH]c3ccccc23)NC(=O)[C@H](C)NC(=O)[C@H](Cc2ccccc2)NC(=O)CNC(=O)[C@H](CCCCN)NC(=O)[C@H](Cc2ccccc2)NC(=O)[C@H](Cc2ccccc2)NC(=O)[C@H](CCCCN)NC(=O)OCC2c3ccccc3-c3ccccc32)C(C)C)CSSC[C@@H](C(=O)N[C@@H](Cc2c[nH]cn2)C(=O)N[C@@H](CCCNC(=N)N)C(=O)N[C@@H](CCCNC(=N)N)C(=O)N[C@@H](C)C(=O)N[C@@H](CC(N)=O)C(N)=O)NC(=O)[C@H](C(C)C)NC(=O)[C@H](CCCNC(=N)N)NC1=O			ICR mice, blood	intraductal mammary, 10 mg/kg, day 5	platelet distribution width	15.78 ± 0.09%
CC[C@H](C)[C@H](NC(=O)[C@H](CCCCN)NC(=O)CNC(=O)[C@H](CC(C)C)NC(=O)[C@H](Cc1ccccc1)NC(=O)[C@H](CCCCN)NC(=O)[C@H](CO)NC(=O)[C@H](Cc1ccccc1)NC(=O)[C@H](Cc1c[nH]c2ccccc12)NC(=O)[C@H](CCC(N)=O)NC(=O)[C@@H](NC(=O)[C@H](Cc1ccccc1)NC(=O)CCCCCNC(=O)CN1CCN(CC(=O)O)CCN(CC(=O)O)CCN(CC(=O)O)CC1)C(C)C)C(=O)N[C@@H](CCC(=O)O)C(=O)N1CCC[C@H]1C(=O)N[C@@H](CC(=O)O)C(=O)N[C@H](C(=O)N[C@@H](CO)C(=O)N[C@@H](CCC(N)=O)C(=O)N[C@H](C(=O)N[C@@H](CCC(N)=O)C(=O)N[C@@H](CC(=O)O)C(=O)N1CCC[C@H]1C(=O)N[C@@H](CC(N)=O)C(=O)N[C@@H](CC(=O)O)C(=O)N[C@@H](CCC(N)=O)C(=O)N[C@@H](Cc1ccc(O)cc1)C(=O)N[C@@H](CCC(=O)O)C(=O)N1CCC[C@H]1C(=O)N[C@@H](Cc1ccccc1)C(=O)O)C(C)C)C(C)C [copper-64 labelled]			BALB/c mice, male, CT26 tumour-bearing, pancreas	2 h, anti-PD1 plus anti-CTLA4 treated	tissue uptake	1.07 ± 0.4 %ID/g
CCCCCCCCCCCCCCCC(=O)N[C@@H](CCC(=O)NCCOCCOCCC(=O)NCCOCCOCCC(=O)NCCCC[C@H](NC(=O)[C@H](CC(=O)O)NC(=O)[C@H](CC(C)C)NC(=O)[C@H](Cc1ccc(O)cc1)NC(=O)[C@H](CCCCN)NC(=O)[C@H](CO)NC(=O)[C@H](Cc1ccc(O)cc1)NC(=O)[C@H](CC(=O)O)NC(=O)[C@H](CO)NC(=O)[C@@H](NC(=O)[C@H](Cc1ccccc1)NC(=O)[C@@H](NC(=O)CNC(=O)[C@H](CCC(N)=O)NC(=O)[C@@H](CO)NC(=O)[C@@H](N)Cc1c[nH]cn1)[C@@H](C)O)[C@@H](C)O)C(=O)N[C@@H](CCCNC(=N)N)C(=O)N[C@@H](CCCNC(=N)N)C(=O)N[C@@H](C)C(=O)N[C@@H](CCC(N)=O)C(=O)N[C@@H](CC(=O)O)C(=O)N[C@@H](Cc1ccccc1)C(=O)N[C@H](C(=O)N[C@@H](CCC(N)=O)C(=O)N[C@@H](Cc1c[nH]c2ccccc12)C(=O)N[C@@H](CC(C)C)C(=O)N[C@@H](CC(C)C)C(=O)N[C@@H](CC(N)=O)C(=O)N[C@H](C(=O)NCC(=O)NCC(=O)N1CCC[C@H]1C(=O)N[C@@H](CO)C(=O)N[C@@H](CO)C(=O)NCC(=O)N[C@@H](C)C(=O)N1CCC[C@H]1C(=O)N1CCC[C@H]1C(=O)N1CCC[C@H]1C(=O)N[C@@H](CO)C(N)=O)[C@@H](C)O)C(C)C)C(=O)O			rhesus monkey, male	subcutaneous, 60 µg/kg once daily, 28 days	urea	6.56 ± 2.44 mmol/L
CC(C)=CCC/C(C)=C/CCn1cc(CC(C)(P(=O)(O)O)P(=O)(O)O)nn1			mouse CD-1, bile	intravenous, 0.3 mg/kg, 8 h	concentration	6040 ± 3070 ng/mL
CCn1ccc(-c2cc([C@@H](C)NC(=O)c3cc(OC[C@@H]4CCN4C)ccc3C)c3ccccc3n2)n1	African green monkey cells			62.5 µM	viability	22.8%
CC(C)[C@H](NC(=O)[C@@H](NC(=O)[C@H](CCCNC(=N)N)NC(=O)[C@H](CCCNC(=N)N)NC(=O)[C@H](CCCNC(=N)N)NC(=O)[C@H](CCC(N)=O)NC(=O)[C@H](CCCNC(=N)N)NC(=O)[C@H](CCCNC(=N)N)NC(=O)[C@H](CCCCN)NC(=O)[C@H](CCCCN)NC(=O)[C@H](CCCNC(=N)N)NC(=O)CN)[C@@H](C)O)C(=O)N[C@H](C(=O)N[C@@H](CO)C(=O)N1CCC[C@H]1C(=O)O)[C@@H](C)O			ICR mouse, female, left kidney	intranasal, 5 mg/kg daily, 4 weeks	kidney weight	0.218 ± 0.02 g
Cc1ccc(N2CCN(C)CC2)cc1C(=O)N[C@H](C)c1cc(-c2cnn(C)c2)nc2ccccc12	African green monkey cells			62.5 µM	viability	72.9%
CC[C@H](C)[C@H](NC(=O)[C@H](Cc1c[nH]c2ccccc12)NC(=O)c1ccccc1)C(=O)N[C@H](C(=O)N[C@@H](Cc1ccc(O)cc1)C(=O)N[C@@H](CCCCN)C(=O)N[C@@H](Cc1c[nH]c2ccccc12)C(=O)N1CCC[C@@H]1C(=O)N[C@@H](CCCNC(=N)N)C(=O)N[C@@H](CCCCN)C(=O)N[C@@H](CCCCN)C(=O)N[C@H](C(=O)N[C@@H](CCCNC(=N)N)C(=O)N[C@@H](Cc1ccc(O)cc1)C(=O)N[C@@H](Cc1c[nH]c2ccccc12)C(=O)N[C@H](C(=O)NCC(=O)N1CCC[C@H]1C(N)=O)[C@@H](C)O)C(C)C)C(C)C		circular dichroism	phosphate buffer	30 µM, pH 6.5	melting temperature	73.9 °C

For quick reference, copied from above:
SMILES	target or system	test	system	conditions	endpoint	result
Cc1ccc(N2CCN(C)CC2)cc1C(=O)N[C@H](C)c1cc(-c2cnn(C)c2)nc2ccccc12	African green monkey cells			62.5 µM	viability	72.9%
CC[C@H](C)[C@H](NC(=O)[C@H](Cc1c[nH]c2ccccc12)NC(=O)c1ccccc1)C(=O)N[C@H](C(=O)N[C@@H](Cc1ccc(O)cc1)C(=O)N[C@@H](CCCCN)C(=O)N[C@@H](Cc1c[nH]c2ccccc12)C(=O)N1CCC[C@@H]1C(=O)N[C@@H](CCCNC(=N)N)C(=O)N[C@@H](CCCCN)C(=O)N[C@@H](CCCCN)C(=O)N[C@H](C(=O)N[C@@H](CCCNC(=N)N)C(=O)N[C@@H](Cc1ccc(O)cc1)C(=O)N[C@@H](Cc1c[nH]c2ccccc12)C(=O)N[C@H](C(=O)NCC(=O)N1CCC[C@H]1C(N)=O)[C@@H](C)O)C(C)C)C(C)C		circular dichroism	phosphate buffer	30 µM, pH 6.5	melting temperature	73.9 °C
